Assay results from different studies.
Compare with care: the assays were run in different laboratories. “And” joins repeats or separate records; there may be more than shown. ± marks the error that the study gave.

Cc1nn(-c2ccc(Cl)cc2)c2c1C(c1ccc(Cl)cc1Cl)C(C#N)=C(N)O2 (centres unmarked)  IC50 (Vero; cytotoxicity, MTT): 34.8 µM
Cn1c(C(=O)Nc2ccc3c(c2)OCCO3)cc2c(=O)n3ccccc3nc21  viability (Vero; MTT; 1.6 µM, 24 (unit not given)): 80.1%
CC[C@H](C)[C@H](NC(=O)[C@H](Cc1ccc(O)cc1)NC(=O)[C@H](CCCCN)NC(=O)[C@H](CCC(N)=O)NC(=O)[C@@H](NC(=O)[C@H](Cc1c[nH]c2ccccc12)NC(=O)[C@H](CCCCN)NC(=O)[C@H](CCCCN)NC(=O)[C@H](CCCNC(=N)N)NC(=O)[C@@H]1CCCN1C(=O)[C@H](Cc1c[nH]cn1)NC(=O)[C@@H](NC(=O)[C@H](CS)NC(=O)[C@@H](NC(=O)[C@H](CCCCN)NC(=O)[C@H](CCCCN)NC(=O)CNC(=O)[C@H](CCCNC(=N)N)NC(=O)[C@H](CCCCN)NC(=O)[C@@H](NC(=O)[C@@H](NC(=O)[C@H](Cc1ccccc1)NC(=O)[C@@H](NC(=O)[C@@H](NC(=O)[C@H](C)NC(=O)[C@@H](N)CCCNC(=N)N)C(C)C)[C@@H](C)CC)[C@@H](C)O)[C@@H](C)O)C(C)C)[C@@H](C)O)C(C)C)C(=O)N[C@@H](CO)C(=O)N[C@@H](CC(C)C)C(=O)N[C@@H](CC(C)C)C(=O)N[C@@H](CCCCN)C(=O)N[C@H](C(=O)N1CCC[C@H]1C(=O)N[C@@H](CCCCN)C(=O)N[C@@H](CCC(N)=O)C(=O)N[C@@H](CC(C)C)C(=O)O)[C@@H](C)O  CC50 (PMA-differentiated THP-1; cell viability, MTT; 24 h): 55.1 µM
O=S(=O)(c1ccc(O)cc1)c1ccc(O)cc1  late apoptotic cells (HepG2 spheroids; annexin V-FITC/PI flow cytometry; 10 µM, 24 h): 16.1 ± 5.01%
CC(C)C[C@H](NC(=O)[C@H](C)NC(=O)[C@H](CCCNC(=N)N)NC(=O)[C@H](CC(C)C)NC(=O)[C@H](CC(C)C)NC(=O)[C@H](CCCNC(=N)N)NC(=O)[C@@H]1CCCN1C(=O)[C@H](CC(C)C)NC(=O)[C@H](CC(=O)O)NC(=O)[C@H](CCCNC(=N)N)NC(=O)[C@H](CC(C)C)NC(=O)[C@H](CC(C)C)NC(=O)[C@H](CCCNC(=N)N)NC(=O)[C@H](Cc1ccc(O)cc1)NC(=O)[C@H](CCCNC(=N)N)NC(=O)[C@@H]1CCCN1C(=O)[C@H](CC(C)C)NC(=O)[C@H](C)NC(=O)[C@H](CCCNC(=N)N)NC(=O)[C@@H](N)CC(C)C)C(=O)N[C@@H](CC(=O)O)C(=O)N[C@@H](C)C(=O)N[C@@H](CCCNC(=N)N)C(=O)N1CCC[C@H]1C(=O)N[C@@H](Cc1ccccc1)C(=O)N[C@@H](C)C(=O)N[C@@H](CCC(=O)O)C(=O)N[C@@H](C)C(=O)N[C@H](C(=O)N[C@@H](CO)C(=O)N[C@@H](Cc1c[nH]c2ccccc12)C(=O)NCC(=O)N[C@@H](CCCNC(=N)N)C(=O)N[C@@H](CC(C)C)C(=O)NCC(=O)N[C@@H](C)C(=O)N[C@@H](CCCNC(=N)N)C(=O)N[C@@H](CCC(N)=O)C(=O)N[C@@H](CCCNC(=N)N)C(=O)N[C@@H](CCCNC(=N)N)C(=O)N[C@@H](CCC(N)=O)C(=O)N[C@@H](CO)C(=O)N[C@@H](CCCNC(=N)N)C(=O)O)[C@@H](C)O  CC50 (PMA-differentiated THP-1; cell viability, MTT; 24 h): 21.2 µM
Nc1nc(O)c2ncn(COC(CO)CO)c2n1  minimum cytotoxic concentration (HeLa; cell morphology alteration): > 100 µM
Cc1cccn2c(=O)c3cc(C(=O)Nc4ccc(N(C)C)cc4)n(C)c3nc12  viability (Vero; MTT; 0.4 µM, 24 (unit not given)): 97.5%
N=C(N)NCCC[C@H](NC(=O)[C@H](Cc1c[nH]c2ccccc12)NC(=O)[C@H](CCCNC(=N)N)NC(=O)[C@H](Cc1c[nH]c2ccccc12)NC(=O)[C@H](Cc1c[nH]c2ccccc12)NC(=O)[C@H](Cc1c[nH]c2ccccc12)NC(=O)[C@H](CCCNC(=N)N)NC(=O)[C@H](Cc1c[nH]c2ccccc12)NC(=O)[C@H](CCCNC(=N)N)NC(=O)CN)C(N)=O  LC50 (PK-15): > 512 µM
Oc1ccc(C(c2ccc(O)cc2)(C(F)(F)F)C(F)(F)F)cc1  viable cells (HepG2 spheroids, dissociated; annexin V-FITC/PI flow cytometry; 10 µM, 24 h): 73.5 ± 7.34%
CCN(CC)C(=S)SSC(=S)N(CC)CC  maximum tolerated dose (THP-1 ASC-GFP monocytes; MTT; 24 h): 3.11 µg/mL
CC(c1ccccc1)(c1ccc(O)cc1)c1ccc(O)cc1  late apoptotic cells (HepG2 spheroids, dissociated; annexin V-FITC/PI flow cytometry; 10 µM, 96 h): 30.6 ± 11.9%
O=c1ccc2ccccc2o1  probability of response (HepG2; measured: heme oxygenase 1; concentration not given, 6 h): 13.5%
CC(C)(c1ccc(O)cc1)c1ccc(O)cc1  necrotic cells (HepG2 spheroids; annexin V-FITC/PI flow cytometry; 10 µM, 24 h): 14.5 ± 6.93%
N=C(N)NCCC[C@H](NC(=O)[C@H](Cc1c[nH]c2ccccc12)NC(=O)[C@H](CCCNC(=N)N)NC(=O)[C@H](Cc1c[nH]c2ccccc12)NC(=O)[C@H](Cc1c[nH]c2ccccc12)NC(=O)[C@H](Cc1c[nH]c2ccccc12)NC(=O)[C@H](CCCNC(=N)N)NC(=O)[C@H](Cc1c[nH]c2ccccc12)NC(=O)[C@@H](N)CCCNC(=N)N)C(=O)N[C@@H](Cc1c[nH]c2ccccc12)C(N)=O  LC50 (PK-15): > 512 µM
O=c1c(O)c(-c2ccc(O)c(O)c2)oc2cc(O)cc(O)c12  IC50 (uninduced SH-SY5Y Aβ-GFP cells; cytotoxicity, MTT; 24 h): 99 µM
c1csc(-c2ccc(-c3cccs3)s2)c1  CC50 (PH5CH8 hepatocytes; high-content cell count; 72 h, oleate lipid loaded): > 10 µM
Nc1nc(CC(O)c2ccc(Cl)cc2)c(Br)c(=O)[nH]1 (centres unmarked)  minimum cytotoxic concentration (HeLa; cell morphology alteration): > 100 µM
CC(=N)S  viability (THLE-2, 3D culture; MTT; 400 µM, 72 h): 75.8%
CC(C)C[C@H](NC(=O)[C@H](C)NC(=O)[C@@H](NC(=O)[C@H](CCCNC(=N)N)NC(=O)[C@H](CC(C)C)NC(=O)[C@H](Cc1c[nH]c2ccccc12)NC(=O)[C@@H]1CCCN1C(=O)[C@@H](N)CCCCN)C(C)C)C(=O)N[C@@H](CS)C(=O)N1CCC[C@H]1C(=O)NCC(=O)O  viability (H9c2; WST-1; 512 µM, 24 h): 65.5% and 101% and 71.9%
NC(=O)c1ncn([C@@H]2O[C@H](CO)[C@@H](O)[C@H]2O)n1  minimum cytotoxic concentration (HeLa; cell morphology alteration): > 250 µM
CC(C)[C@H](NC(=O)[C@H](CCCNC(=N)N)NC(=O)[C@H](Cc1c[nH]c2ccccc12)NC(=O)[C@H](CCCNC(=N)N)NC(=O)[C@H](Cc1c[nH]c2ccccc12)NC(=O)[C@H](Cc1c[nH]c2ccccc12)NC(=O)[C@H](Cc1c[nH]c2ccccc12)NC(=O)[C@H](CCCNC(=N)N)NC(=O)[C@H](Cc1c[nH]c2ccccc12)NC(=O)[C@H](CCCNC(=N)N)NC(=O)CN)C(N)=O  LC50 (PK-15): 119 µM
CO[C@H]1/C=C\C=C(/C)C(=O)NC2=CC(=O)C(NCCN(C)C)=C(C[C@@H](C)C[C@H](OC)[C@H](O)[C@@H](C)/C=C(\C)[C@@H]1OC(N)=O)C2=O  EC50 (MYBPC3-mutant iPSC cardiomyocytes; cell viability; 24 h): > 60 µM
COc1cc2c(O)c3c(c(-c4ccc5c(c4)OCO5)c2cc1OC)C(=O)OC3  CC50 (HeLa; 24 h): > 100 µM
CC(C)[C@H](NC(=O)[C@H](CCCNC(=N)N)NC(=O)[C@H](Cc1c[nH]c2ccccc12)NC(=O)[C@H](CCCNC(=N)N)NC(=O)[C@H](Cc1c[nH]c2ccccc12)NC(=O)[C@H](Cc1c[nH]c2ccccc12)NC(=O)[C@H](Cc1c[nH]c2ccccc12)NC(=O)[C@H](CCCNC(=N)N)NC(=O)[C@H](Cc1c[nH]c2ccccc12)NC(=O)[C@@H](N)CCCNC(=N)N)C(N)=O  LC50 (PK-15): > 512 µM
CC[C@@H](C)[C@H]1O[C@@H](c2c(O)c(-c3ccccc3)cn(OC)c2=O)[C@H](C)C[C@@H]1C  IC50 (SK-OV-3; cytotoxicity, neutral red; 48 h): > 10 µg/mL
Oc1ccc(C2(c3ccc(O)cc3)c3ccccc3-c3ccccc32)cc1  early apoptotic cells (HepG2 spheroids, dissociated; annexin V-FITC/PI flow cytometry; 10 µM, 96 h): 6.09 ± 5.03%
CC(=O)c1cccc(NC(=O)c2cc3c(=O)n4ccccc4nc3n2C)c1  viability (Vero; MTT; 25 µM, 24 (unit not given)): 56%
Cc1cc(C(C)(C)c2ccc(O)c(C)c2)ccc1O  necrotic cells (HepG2 spheroids; annexin V-FITC/PI flow cytometry; 10 µM, 24 h): 8.02 ± 3.22%
Cc1cc(NC(=O)c2cc3c(=O)n4cccc(C)c4nc3n2C)ccc1Br  viability (Vero; MTT; 25 µM, 24 (unit not given)): 62.4%
